Results gathered from unrelated publications.
Every numbered part comes from another study and shows a few of its results, in no order.

Series 1
Target: Sal-like protein 4, full length isoform A (SALL4, Homo sapiens, UniProt Q9UJQ4, residues 1-1053)
UniProt Q9UJQ4, sequence (whole entry, looked up): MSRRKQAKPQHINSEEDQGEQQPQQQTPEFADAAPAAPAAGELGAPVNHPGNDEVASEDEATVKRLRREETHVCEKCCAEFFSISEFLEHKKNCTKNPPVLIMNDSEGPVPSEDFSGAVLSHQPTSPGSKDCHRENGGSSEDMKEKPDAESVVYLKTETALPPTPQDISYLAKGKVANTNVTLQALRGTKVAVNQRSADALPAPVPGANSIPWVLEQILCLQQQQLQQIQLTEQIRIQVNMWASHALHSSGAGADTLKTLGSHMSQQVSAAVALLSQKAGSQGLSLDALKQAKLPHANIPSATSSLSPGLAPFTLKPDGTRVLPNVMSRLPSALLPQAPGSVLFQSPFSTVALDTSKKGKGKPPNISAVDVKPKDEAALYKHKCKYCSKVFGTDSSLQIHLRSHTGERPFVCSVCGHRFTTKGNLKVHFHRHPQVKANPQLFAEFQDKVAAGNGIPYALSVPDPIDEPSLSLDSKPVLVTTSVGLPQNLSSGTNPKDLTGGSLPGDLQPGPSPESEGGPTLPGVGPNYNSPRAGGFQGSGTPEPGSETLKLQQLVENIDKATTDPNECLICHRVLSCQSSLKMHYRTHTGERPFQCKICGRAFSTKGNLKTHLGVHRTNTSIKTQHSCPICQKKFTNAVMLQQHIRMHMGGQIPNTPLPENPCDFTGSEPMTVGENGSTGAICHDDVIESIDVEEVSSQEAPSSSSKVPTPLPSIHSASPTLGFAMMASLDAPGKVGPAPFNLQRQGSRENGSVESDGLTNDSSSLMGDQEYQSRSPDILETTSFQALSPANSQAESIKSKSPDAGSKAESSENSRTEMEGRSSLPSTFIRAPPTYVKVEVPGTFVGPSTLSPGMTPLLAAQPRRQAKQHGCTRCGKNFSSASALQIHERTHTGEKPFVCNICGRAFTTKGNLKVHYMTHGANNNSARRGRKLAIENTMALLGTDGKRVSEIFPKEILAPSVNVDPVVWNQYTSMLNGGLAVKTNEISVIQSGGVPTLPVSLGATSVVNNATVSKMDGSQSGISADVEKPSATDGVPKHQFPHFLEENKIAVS
Method: universal PBM
Molecule type: double-stranded DNA, one strand shown
Sample: in vitro
Tested at: 600 nM
Notes: 8-mer, flanks averaged, mean of replicates
Reading: higher = stronger binding
Sequence	E-score
CAACAACG	0.00385
AGACCTTG	-0.0053
AACTAGTC	0.0663
TGTGGGAA	-0.0171
GTTGCAAC	-0.069
GAGTTGTA	0.155

Series 2
Target: Centromere-binding protein 1, full length, His-tagged (CBF1, Saccharomyces cerevisiae, UniProt P17106, residues 1-351)
UniProt P17106, sequence (whole entry, looked up): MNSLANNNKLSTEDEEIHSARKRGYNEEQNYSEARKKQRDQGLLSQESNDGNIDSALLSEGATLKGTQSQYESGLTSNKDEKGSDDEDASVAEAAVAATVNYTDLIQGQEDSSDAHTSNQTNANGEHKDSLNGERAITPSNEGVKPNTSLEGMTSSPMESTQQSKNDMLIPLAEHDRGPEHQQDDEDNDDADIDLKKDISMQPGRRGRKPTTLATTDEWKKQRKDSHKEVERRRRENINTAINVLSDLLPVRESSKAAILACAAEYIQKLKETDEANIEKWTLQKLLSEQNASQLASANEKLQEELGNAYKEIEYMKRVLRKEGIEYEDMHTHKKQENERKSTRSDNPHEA
Method: competition protein-binding microarray
Molecule type: double-stranded DNA, one strand shown
Sample: in vitro
Tested at: 2 µM
Notes: whole 60-bp probe, lowest competitor level
Together with: Pho4 competitor, 0.05 µM
Reading: higher = stronger binding
All sequences stand within: … GTCTTGATTCGCTTGACGCTGCTG
Sequence	fluorescence intensity
AAAAGCAAATTTTCACACGTGAAGAAGTAAGCTGTT	737 a.u.
AGTAGAACTCGTCGGCACGTTCAAAGACCAAGAATT	75 a.u.
CTTTCCCGATCTTGAGGAGTGGGTGTAGCACATTTG	71.4 a.u.
CTTTCCCGATCTTGGTGAGTGGGTGTAGCACATTTG	76.2 a.u.
CGGGGTTAAGTTTGTCACCTAACTTGCTTGCAGCAG	65.8 a.u.

Series 3
Target: Interferon regulatory factor 5, full length, phosphomimetic (IRF5, Homo sapiens, UniProt Q13568-2, residues 1-514, S451D/S453D/S456D/S462D)
Method: protein-binding microarray
Molecule type: double-stranded DNA, one strand shown
Sample: in vitro
Tested at: 940 nM top
Notes: 60-bp whole probe
Together with: salmon DNA 0.4 mg/ml
Reference: random background probes
Reading: higher = stronger binding
All sequences stand within: GCCTAGCAC … GTCTTGATTCGCTTGACGCTGCTG
Sequence	fitted relative affinity [z-score]
TCAGGCTTCATGTTGCTCACTGTGCTA	-0.402
TTAGATTTCGAGTATCGATTAGTGCTA	4.26
TCAGCTTTCCAATTCTCACTGTGCTAG	0.85
TTAGATATCGCGTATCGATTAGTGCTA	1.3
GACCATTTCAGTTTCGAGACGTGCTAG	5.26
GACGAGTTCAGACTGGAGACGTGCTAG	-0.307

Single results of other studies
Substance	target	assay	system	setting	how to read	measurement	value
PhoQ, residues 284 288 289 292 302 303 TLSLKA	PhoP, residues 12 14 15 18 19 AGCRL (Escherichia coli, UniProt P23836)	Sort-seq, refers to: YFP reporter	E. coli	PhoQ-PhoP variant library, together with: 10 µM Mg2+	reference: high Mg2+ state, higher = stronger signaling	fold induction	0.979

A few entries again (series 1):
Sequence	E-score
AACTAGTC	0.0663
